Assay results of several laboratories.
Every numbered part comes from another study and shows a few of its results, in no order.
Chain of UniProt P25021 (whole entry, looked up): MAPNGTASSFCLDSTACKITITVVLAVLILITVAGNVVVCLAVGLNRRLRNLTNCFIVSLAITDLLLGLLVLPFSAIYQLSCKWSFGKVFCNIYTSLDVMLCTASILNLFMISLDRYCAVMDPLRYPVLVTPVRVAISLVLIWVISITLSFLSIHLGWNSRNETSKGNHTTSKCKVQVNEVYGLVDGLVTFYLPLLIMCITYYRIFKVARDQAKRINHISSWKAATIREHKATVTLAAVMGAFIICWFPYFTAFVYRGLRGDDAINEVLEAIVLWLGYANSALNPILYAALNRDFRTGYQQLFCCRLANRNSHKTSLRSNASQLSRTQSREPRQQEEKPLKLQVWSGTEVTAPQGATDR
Chain of UniProt Q96PY6 (whole entry, looked up): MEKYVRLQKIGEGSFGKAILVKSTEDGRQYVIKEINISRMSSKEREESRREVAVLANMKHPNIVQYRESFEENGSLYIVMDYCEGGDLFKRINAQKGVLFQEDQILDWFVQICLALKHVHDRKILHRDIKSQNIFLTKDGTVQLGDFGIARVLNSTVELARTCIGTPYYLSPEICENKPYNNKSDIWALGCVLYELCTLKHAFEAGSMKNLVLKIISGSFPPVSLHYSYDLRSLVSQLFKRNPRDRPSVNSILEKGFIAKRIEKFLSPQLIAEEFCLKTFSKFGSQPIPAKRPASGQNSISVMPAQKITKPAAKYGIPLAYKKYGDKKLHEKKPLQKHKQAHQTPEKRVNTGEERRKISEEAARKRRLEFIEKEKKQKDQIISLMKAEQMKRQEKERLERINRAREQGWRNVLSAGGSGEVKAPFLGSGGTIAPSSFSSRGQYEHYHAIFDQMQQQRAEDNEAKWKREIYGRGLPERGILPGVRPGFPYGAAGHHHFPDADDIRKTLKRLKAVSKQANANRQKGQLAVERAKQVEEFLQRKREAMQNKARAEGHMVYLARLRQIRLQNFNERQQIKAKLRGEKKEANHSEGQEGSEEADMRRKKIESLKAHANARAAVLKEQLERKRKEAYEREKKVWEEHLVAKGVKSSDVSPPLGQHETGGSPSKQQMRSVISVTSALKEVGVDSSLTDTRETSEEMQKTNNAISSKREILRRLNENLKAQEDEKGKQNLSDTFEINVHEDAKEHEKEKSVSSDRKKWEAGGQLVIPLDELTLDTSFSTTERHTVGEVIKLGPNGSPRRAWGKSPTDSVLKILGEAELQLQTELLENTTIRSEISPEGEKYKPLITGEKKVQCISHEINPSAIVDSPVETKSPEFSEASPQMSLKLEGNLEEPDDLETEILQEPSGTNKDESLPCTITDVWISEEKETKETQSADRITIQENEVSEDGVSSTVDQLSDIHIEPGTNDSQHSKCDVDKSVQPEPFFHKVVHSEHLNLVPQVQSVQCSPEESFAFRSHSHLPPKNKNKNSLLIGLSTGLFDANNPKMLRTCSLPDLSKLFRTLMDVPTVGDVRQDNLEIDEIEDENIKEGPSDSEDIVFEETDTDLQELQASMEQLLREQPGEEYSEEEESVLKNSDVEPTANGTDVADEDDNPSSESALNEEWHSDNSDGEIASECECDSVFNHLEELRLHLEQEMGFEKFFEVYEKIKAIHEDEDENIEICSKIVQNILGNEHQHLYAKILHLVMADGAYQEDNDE
Chain of UniProt P18089 (whole entry, looked up): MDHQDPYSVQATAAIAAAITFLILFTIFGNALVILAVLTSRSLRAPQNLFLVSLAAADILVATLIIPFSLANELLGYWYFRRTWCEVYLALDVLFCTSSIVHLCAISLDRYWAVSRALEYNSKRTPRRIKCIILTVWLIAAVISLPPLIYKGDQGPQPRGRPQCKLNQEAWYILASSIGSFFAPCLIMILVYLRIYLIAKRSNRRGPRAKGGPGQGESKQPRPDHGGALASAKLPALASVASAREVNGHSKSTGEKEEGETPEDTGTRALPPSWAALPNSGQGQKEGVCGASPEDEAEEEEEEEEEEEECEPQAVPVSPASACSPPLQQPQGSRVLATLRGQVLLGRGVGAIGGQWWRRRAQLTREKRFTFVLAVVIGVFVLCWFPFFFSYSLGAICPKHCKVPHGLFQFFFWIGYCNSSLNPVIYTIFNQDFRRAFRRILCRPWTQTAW
Chain of UniProt O95382 (whole entry, looked up): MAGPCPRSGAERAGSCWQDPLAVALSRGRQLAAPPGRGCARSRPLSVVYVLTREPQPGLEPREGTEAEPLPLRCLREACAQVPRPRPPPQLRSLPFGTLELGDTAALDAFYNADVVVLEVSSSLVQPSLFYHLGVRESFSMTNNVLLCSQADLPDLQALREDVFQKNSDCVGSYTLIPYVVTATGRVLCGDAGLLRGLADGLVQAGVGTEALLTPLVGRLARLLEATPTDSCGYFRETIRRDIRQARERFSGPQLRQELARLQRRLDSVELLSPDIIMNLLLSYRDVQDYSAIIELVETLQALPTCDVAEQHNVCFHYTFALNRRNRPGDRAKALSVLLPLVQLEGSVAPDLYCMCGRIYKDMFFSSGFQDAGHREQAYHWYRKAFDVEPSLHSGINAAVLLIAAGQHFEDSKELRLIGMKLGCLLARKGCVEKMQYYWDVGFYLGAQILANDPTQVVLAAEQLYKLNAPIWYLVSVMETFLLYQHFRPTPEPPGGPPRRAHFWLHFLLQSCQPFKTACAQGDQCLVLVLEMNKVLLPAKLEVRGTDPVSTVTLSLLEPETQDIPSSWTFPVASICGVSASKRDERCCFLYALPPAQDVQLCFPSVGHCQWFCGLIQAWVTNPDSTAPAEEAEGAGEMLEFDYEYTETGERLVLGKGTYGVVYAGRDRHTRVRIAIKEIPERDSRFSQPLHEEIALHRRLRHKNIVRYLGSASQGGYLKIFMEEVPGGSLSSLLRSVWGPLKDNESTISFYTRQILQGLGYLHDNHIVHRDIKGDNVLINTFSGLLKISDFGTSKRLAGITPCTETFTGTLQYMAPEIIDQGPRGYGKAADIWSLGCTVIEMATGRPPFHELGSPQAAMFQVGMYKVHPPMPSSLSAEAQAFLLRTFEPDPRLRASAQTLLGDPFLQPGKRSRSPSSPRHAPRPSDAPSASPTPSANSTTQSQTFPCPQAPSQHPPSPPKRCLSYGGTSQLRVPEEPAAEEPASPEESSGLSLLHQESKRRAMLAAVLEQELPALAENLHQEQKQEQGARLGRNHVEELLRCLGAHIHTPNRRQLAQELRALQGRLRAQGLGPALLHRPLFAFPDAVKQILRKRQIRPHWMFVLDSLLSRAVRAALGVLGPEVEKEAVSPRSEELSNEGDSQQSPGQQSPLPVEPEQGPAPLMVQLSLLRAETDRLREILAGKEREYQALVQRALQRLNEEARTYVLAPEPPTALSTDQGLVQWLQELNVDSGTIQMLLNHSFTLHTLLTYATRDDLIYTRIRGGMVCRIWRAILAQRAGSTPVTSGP
Chain of UniProt P34969 (whole entry, looked up): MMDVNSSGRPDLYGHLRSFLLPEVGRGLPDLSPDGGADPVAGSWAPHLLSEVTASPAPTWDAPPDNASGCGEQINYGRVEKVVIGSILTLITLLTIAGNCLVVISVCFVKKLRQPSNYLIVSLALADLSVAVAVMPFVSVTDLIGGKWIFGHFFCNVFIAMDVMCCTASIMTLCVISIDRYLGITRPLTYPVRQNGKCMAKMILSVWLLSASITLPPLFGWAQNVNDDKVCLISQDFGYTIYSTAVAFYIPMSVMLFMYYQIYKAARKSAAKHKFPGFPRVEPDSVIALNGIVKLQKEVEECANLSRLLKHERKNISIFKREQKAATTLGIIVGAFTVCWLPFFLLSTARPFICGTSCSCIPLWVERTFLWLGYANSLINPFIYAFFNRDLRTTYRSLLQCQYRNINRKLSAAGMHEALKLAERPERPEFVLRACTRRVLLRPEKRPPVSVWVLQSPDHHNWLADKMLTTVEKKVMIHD
Chain of UniProt P51956 (whole entry, looked up): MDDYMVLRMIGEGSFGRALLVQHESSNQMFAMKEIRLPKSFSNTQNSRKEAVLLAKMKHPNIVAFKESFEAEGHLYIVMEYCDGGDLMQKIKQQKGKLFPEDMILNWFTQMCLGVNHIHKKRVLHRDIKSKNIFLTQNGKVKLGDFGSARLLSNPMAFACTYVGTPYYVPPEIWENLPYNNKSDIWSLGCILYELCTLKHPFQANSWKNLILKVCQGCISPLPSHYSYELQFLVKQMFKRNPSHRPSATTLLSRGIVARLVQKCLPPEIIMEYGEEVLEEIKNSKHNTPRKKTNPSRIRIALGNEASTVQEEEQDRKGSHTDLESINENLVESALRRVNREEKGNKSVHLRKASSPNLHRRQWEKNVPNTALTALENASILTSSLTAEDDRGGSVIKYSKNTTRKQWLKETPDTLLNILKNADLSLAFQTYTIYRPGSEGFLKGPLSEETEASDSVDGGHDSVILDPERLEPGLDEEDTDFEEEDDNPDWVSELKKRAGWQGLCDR
Chain of UniProt P46098 (whole entry, looked up): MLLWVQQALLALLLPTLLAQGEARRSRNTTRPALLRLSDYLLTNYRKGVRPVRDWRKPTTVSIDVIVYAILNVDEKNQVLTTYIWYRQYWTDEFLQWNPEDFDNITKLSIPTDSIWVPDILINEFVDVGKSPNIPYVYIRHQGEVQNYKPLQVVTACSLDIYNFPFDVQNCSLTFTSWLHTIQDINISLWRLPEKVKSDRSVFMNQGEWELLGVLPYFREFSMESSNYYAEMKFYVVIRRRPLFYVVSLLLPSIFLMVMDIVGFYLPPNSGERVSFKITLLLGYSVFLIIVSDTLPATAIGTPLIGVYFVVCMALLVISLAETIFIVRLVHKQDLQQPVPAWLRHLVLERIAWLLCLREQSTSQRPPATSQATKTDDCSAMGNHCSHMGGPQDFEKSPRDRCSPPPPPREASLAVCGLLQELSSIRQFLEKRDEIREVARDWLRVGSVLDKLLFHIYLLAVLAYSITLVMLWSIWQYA

Sample 1 — effect on: enzyme activity; concentration: 10 µM; reference: untreated control; quantity: remaining activity
SMILES: Cc1sc(C(=O)NC2COC2)cc1-n1cc(NC(=O)Nc2c(F)cccc2Cl)cn1
MARK1 (Homo sapiens, UniProt Q9P0L2): 95.2%
CDC42BPG (Homo sapiens, UniProt Q6DT37): 101%
NEK1 (Homo sapiens, UniProt Q96PY6): 89.3%
PRKCZ (Homo sapiens, UniProt Q05513): 104%
MAPK14 (Homo sapiens, UniProt Q16539): 86%
Tyrosine-protein kinase Lyn, isoform B (LYN, Homo sapiens, UniProt P07948): 88.8%
DDR1 (Homo sapiens, UniProt Q08345): 83.4%
VRK1 (Homo sapiens, UniProt Q99986): 105%
NEK3 (Homo sapiens, UniProt P51956): 86.5%
MAP3K6 (Homo sapiens, UniProt O95382): 77.7%
Aurora kinase A (AURKA, Homo sapiens, UniProt O14965): 85.4%

Sample 2 — organism: Sarcocystis neurona; effect on: parasite growth; concentration: 10 µM; time: 96 h; setting: first screen; reference: untreated; quantity: log2 fold change
COC(=O)Nc1nc2cc(C(=O)c3ccc(F)cc3)ccc2[nH]1: -0.56
Cc1c(O)c(=O)ccn1C: 0.07
O=C(O)c1cc(=O)c2c(OCC(O)COc3cccc4oc(C(=O)O)cc(=O)c34)cccc2o1: 0.35
COCCCC/C(=N\OCCN)c1ccc(C(F)(F)F)cc1: -0.26
CC(C)(C(=O)O)c1ccc(C(O)CCCN2CCC(C(O)(c3ccccc3)c3ccccc3)CC2)cc1 (stereo not shown): 0.3
CCN(CC)CC#CCOC(=O)C(O)(c1ccccc1)C1CCCCC1 (stereo not shown): 0.24
COc1ccccc1OCC(O)CN1CCN(CC(=O)Nc2c(C)cccc2C)CC1 (stereo not shown): -0.17
OC(CCN1CCCC1)(c1ccccc1)C1CCCCC1 (stereo not shown): -0.29
CC=CC(=O)N(CC)c1ccccc1C (mixture of isomers): 0.14
COc1cc(CNC(=O)CCCC/C=C\C(C)C)ccc1O: 0.2
CC1(C)S[C@@H]2[C@H](NC(=O)COc3ccccc3)C(=O)N2[C@H]1C(=O)O: -0.15
C[C@]12C=CC(=O)C=C1CC[C@@H]1[C@@H]2C(=O)C[C@@]2(C)[C@H]1CC[C@]2(O)C(=O)CO: 0.25
CCOC(=O)C1=C(C)NC(C)=C(C(=O)OC)C1c1cccc([N+](=O)[O-])c1 (stereo not shown): -1.11
Cc1nc2ccccn2c(=O)c1CCN1CCC(C(=O)c2ccc(F)cc2)CC1: -0.74

Sample 3 — host: human; medium: microsomes or S9; concentration: 2 µM; time: 0.5 h; quantity: remaining compound
Cc1nc2nc(CC(=O)N3CCC(C)CC3)nn2c(C)c1Cl: 95%
CCOc1cc(=O)n2c(c1C(=O)Nc1ccccc1C(=O)OC)CCCC2: 37.3%
CCn1ccc(C(=O)Nc2c(C)cc(C)cc2C)n1: 90.4%
CCCN(CCC)S(=O)(=O)c1cc2c(cc1Cl)Oc1ccc(C)cc1NC2=O: < 1%
COc1ccccc1CNc1ccc2[nH]c(=O)[nH]c2c1: > 100%
O=C(CSc1n[nH]c2nc3ccccc3n12)c1ccc(O)cc1: 10.5%
CC(=O)Nc1nc2ccc(-c3nn(C(C)C)c4nc(N)ncc34)cc2s1: 66.9%
CN(CCc1ccccc1)c1ncc(-c2ncc[nH]2)c(-c2ccc(F)cc2)n1: 0.104%
CCOC(=O)Cc1cc(=O)n2nc(Cc3ccccc3)c(-c3ccccc3)c2[nH]1: 55.2%
Cc1ncsc1CC[S+]([O-])c1ccc(S(C)(=O)=O)cc1 (stereo not shown): 75.3%
COC(C)(C)c1noc(-c2ccc(=O)n(C)n2)n1: 65.6%
CNC1=C(c2cc(Br)ccn2)C(=O)C(c2cccc(Cl)c2)O1 (stereo not shown): > 100%
CCn1cnc2c(Nc3ccc(OC)c(Cl)c3)nc(Cl)nc21: 44%
c1ccc(CN2CCc3nc(N4CCCC4)nc(N4CCn5cnnc5C4)c3C2)cc1: 23%
CCOc1ccccc1CCCNS(=O)(=O)c1ccc(C)cc1: < 1%

Sample 4 — concentration: 10 µM; quantity: inhibition
SMILES: N#CN1CC[C@@H](C(=O)Nc2nc3c(s2)CN(C(=O)CN=[N+]=[N-])CC3)C1
ADRB3 (Homo sapiens, UniProt P13945); binding, radioligand binding: -15.2%
ADRA2B (Homo sapiens, UniProt P18089); binding, radioligand binding: 6.46%
HTR3A (Homo sapiens, UniProt P46098); cell-free assay: 0.95%
CHRM2 (Homo sapiens, UniProt P08172); binding, radioligand binding: -12%
HRH1 (Homo sapiens, UniProt P35367); binding, radioligand binding: 0.43%
CHRM4 (Homo sapiens, UniProt P08173); binding, radioligand binding: -1.43%
ADRA1D (Homo sapiens, UniProt P25100); binding, radioligand binding: 0.34%
HRH2 (Homo sapiens, UniProt P25021); binding, radioligand binding: 3.43%
ADRA2C (Homo sapiens, UniProt P18825); binding, radioligand binding: 4.21%
HRH4 (Homo sapiens, UniProt Q9H3N8); binding, radioligand binding: -10.9%
HTR7 (Homo sapiens, UniProt P34969); binding, radioligand binding: -1.05%
DRD1 (Homo sapiens, UniProt P21728); binding, radioligand binding: 8.27%
